Published values from different studies.
Compare with care: the assays were run in different laboratories. ± marks the error that the study gave.

| SMILES | tested on | assay | test system | setting | scale | endpoint | value |
| --- | --- | --- | --- | --- | --- | --- | --- |
| CCNc1nc(Nc2ccc(F)c(Cl)c2)c2ccccc2n1 | Vero | MTT | – | 31.25 µg/mL | – | cytotoxicity | 0% |
| C=C1CC[C@@H]2[C@](C)(CCC[C@]2(C)C(=O)O)[C@H]1CC/C(C)=C/CO | neuroblastoma M2 (−) | western blot | – | IC50 | baseline: untreated | PCNA level | decreased |
| Cc1ccc(O)c(/C=C2\SC(N3CCCCC3)=NC2=O)c1 | NG108-cl | clomeleon fluorescence, item: intracellular chloride reduction | – | 5 h | – | EC50 | inactive |
| COc1ccc2c(N(C)c3ccc(/C(C)=N/OCCN)cc3)c3c(Cl)coc3nc2c1 | RWPE-1 | MitoSOX staining | – | 1 µM, 24 h | – | reduction in mitochondrial superoxide | 40% |
| COc1cnc2cccc(N3CCc4c(cc(Cn5ccnc5C)cc4-c4cn(C)nc4C(F)(F)F)C3=O)c2c1 | HEC-251 | cell growth, inhibitor | – | 120 h | – | EC50 | > 30 µM |
| O=C(C[C@@H](C(F)F)n1ccc(F)n1)N1CCC(O)(Cn2cnc3c(cnn3-c3ccc(F)cc3)c2=O)CC1 | CHP-212 resistant | PI flow cytometry | – | 0.1 µM, 24 h | – | G2/M phase cells | 13.2% |
| CCCCN1C[C@H](O)[C@@H](O)[C@@H](O)[C@H]1CO | sample B patient fibroblasts | GlcCer level lowering, LC-MS/MS, item: GlcCer d18:1/24:1 | – | 216 h | – | IC50 | 28.8 µM |
| C=Cc1c2[n-]c(c1C)/C=c1\[n-]/c(c(C)c1C=C)=C\c1[n-]c(c(CCC(=O)O)c1C)/C=c1\[n-]c(c(C)c1CCC(=O)O)=C2.[Sn+4] | SH-SY5Y | RNA-seq, item: SGK1 mRNA | – | 5 µM, 5 h | baseline: untreated cells | fold change | 1.67 |
| Nc1cccc2c1C(=O)N(C1CCC(=O)NC1=O)C2=O (stereo not shown) | RPMI-8226 | flow cytometry, item: CD5 | – | concentration not given | baseline: comparator compound alone | surface marker level | 56.1% |
| O=c1cc(C(Cl)(Cl)Cl)oc2ccc(Cl)cc12 | Neuro2a | inhibitor, western blot | – | concentration not given, together with: BRP 100 µg/mL | – | CREB phosphorylation Ser133 | inhibited |
| Cc1nc(N(Cc2ccccc2)c2ccc3c(c2)/C(=C/c2ccccc2)C(=O)N3Cc2ccccc2)c2ccccc2n1 (mixture of isomers) | LLC | – | – | 2.0 µM, 24 h | – | wound healing rate | 14.1% |
| CC(C)C[C@@H](C=O)NC(=O)[C@H](CC(C)C)NC(=O)[C@H](CC(C)C)NC(=O)OCc1ccccc1 | LDR | silenced CMV-GFP reporter derepression, qHTS | – | – | – | efficacy | 171% |
| CC#CC(=O)N1CC[C@@H](n2cc(-c3ccc(Oc4c(F)cccc4F)cc3)c3c(N)n[nH]c(=O)c32)C1 | RL | cell growth | – | 72 h | – | GI50 | 8.25 µM |
| Cc1nn(CC(F)(F)F)cc1Nc1ncc(Br)c(NCc2ccc(S(N)(=O)=O)cc2)n1 | RAW-ISG | TBK1 phosphorylation, western blot | – | 10 µM, together with: poly(I:C) | baseline: DMSO | phospho-TBK1/TBK1 ratio | 0.271 |
| COc1ccc(-n2nc(C(C)=O)s/c2=N\N=C(/C)c2ccc(NC(=O)c3ccc(Cl)cc3)cc2)cc1 | MCF7 | – | – | 2.5 µM | – | toxicity | 93.5% |
| CCCCS(=N)(=O)CCC(N)C(=O)O (stereo not shown) | OVCAR-5 | LC-ESI-MS/MS, item: glutathione | – | 20 µM, 24 h | baseline: untreated | remaining GSH | 0.3% |
| Cc1cnc2ccc3c(c2n1)N1CCC(O)N=C1N3C (stereo not shown) | BALB/c 3T3 | colony forming efficiency | – | 1 µM | – | colony number | 86 colonies per plate |
| CC(=O)Nc1cccc(-n2c(=O)n(C3CC3)c(=O)c3c(Nc4ccc(I)cc4F)n(C)c(=O)c(C)c32)c1 | MeWo (NF1) | cell viability, resazurin | – | 6.25 nM, 72 h | baseline: DMSO | average fractional effect | 30% |
| c1ccc2[nH]ccc2c1 | HCT-8 | RNA-seq, item: ARRDC3 | – | concentration not given | – | mRNA level, LS mean | 77 counts per million |
| CCOC(=O)c1cc2c(=O)n3ccccc3nc2n(Cc2ccco2)c1=NC(=O)c1ccc(Br)cc1 | LDR | silenced CMV-GFP reporter derepression, qHTS | – | – | – | efficacy | 60% |
| O=P1(C2CCCCC2)CCCCC1 | SW480 | ELISA | – | IC50, 72 h | – | IL-6 level | 2.7 ± 0.28 pg/mL |
| C[C@H]1[C@@H](O)O[C@@H]2O[C@@]3(C)CC[C@H]4[C@H](C)CC[C@@H]1[C@@]24OO3 | THP-1 | annexin V/PI flow cytometry, item: annexin V+/PI- | – | 1.6 µM, 24 h | – | early apoptotic cells | 2.8% |
| CC1CNC(=O)NC1=O (stereo not shown) | – | binding, MIDAS equilibrium dialysis LC-MS | A2AR-BRIL thermostabilized | concentration not given | baseline: no-protein control | log2 fold change | -0.387 |
| C=CC1=C(C)c2cc3[n-]c(cc4nc(cc5[n-]c(cc1n2)c(C)c5C=C)C(C)=C4CCC(=O)O)c(CCC(=O)O)c3C.[Zn+2] | SH-SY5Y | RNA-seq, item: SPRY1 mRNA | – | 5 µM, 5 h | baseline: untreated cells | fold change | 2.78 |
| CCOC(=O)CSc1nc(-c2ccc(Cl)cc2)c2c(NC(=O)c3ccccc3)nnc-2[nH]1 | TK-10 | SRB | – | 10 µM, NCI60 single-dose screen | baseline: untreated | cell growth | 125% |

| SMILES | tested on | assay | test system | setting | scale | endpoint | value |
| --- | --- | --- | --- | --- | --- | --- | --- |
| CCn1cc(-c2cc(Cn3ccoc3=N)cc3c2CCN([C@@H](C)c2cc(OC)ccn2)C3=O)c(C(F)(F)F)n1 | KLM1 | cell growth, inhibitor | – | 120 h | – | EC50 | 4.7 µM |
| Cc1nn(-c2ccccc2)c(C)c1C(=O)Nc1ccc2ccccc2n1 | HEK293 Wnt luciferase reporter | Wnt signaling | – | 1 µM | – | inhibition | > 70% |
| COc1cc2ncnc(Nc3ccc(Oc4ccccc4)c(C)c3C)c2cc1OC.Cl | MeWo (NF1) | cell viability, resazurin | – | 0.1 µM, 72 h, together with: trametinib | – | average fractional effect | 7% |
| CCCN1CCN(c2ccc3nc(-c4ccc5nc(-c6cc(OC)ccc6OC)[nH]c5c4)[nH]c3c2)CC1 | SR | SRB | – | 10 µM, 48 h | – | growth percent | -25.6% |
| CC(C)NCC(O)c1ccc(O)c(O)c1 (stereo not shown) | mouse ventricular cardiomyocytes | – | – | dose not given, 0.087 s | – | sarcomere length | 1.76 µm |
| Cc1cccc(-c2[nH]c(CNc3ccccc3F)nc2-c2ccc3ncnn3c2)n1 | MM1.S pomalidomide-resistant | XTT | – | 1.25 µM | baseline: untreated | viability | 59% |
| CNc1ncc2cc(-c3cc(NC(=O)NCCC(C)(C)C)c(F)cc3C)c(C)nc2n1 | SK-MEL-239 C4 (p61 BRAF V600E) | ERK phosphorylation, Western blot | – | 1 h | – | IC75 | 0.067 µM |
| CSc1cc(Oc2ccnc3[nH]c(=O)cnc23)ccc1NC(=O)Nc1cc(C(C)(C)C)nn1-c1ccccc1 | mean of patient lines P1-P3 | reverse phase protein array, item: mTOR phosphosite 2448 | – | 1 µM, 4 h | baseline: DMSO | phospho/total mTOR ratio | 0.72 |
| CC/C(=N\NC(=O)NCc1cccc(O)c1)c1ccc(O)c(C)c1O | SK-OV-3 | Western blot | 3D culture in gellan gum | 10 µM, 1 h, unit not given | baseline: β-actin | TAZ protein level | 0.97 ± 0.31 |
| O=C(/C=C/C=C/C=C/C1CCCCC1)NC1=C[C@@](O)(/C=C/C=C/C=C/C(=O)NC2=C(O)CCC2=O)[C@@H]2O[C@@H]2C1=O | WM-115 | cell growth, CellTiter-Glo | – | 78 h | – | GI50 | 29.7 µM |
| CCCCCCCCCCCCCCCC(NCc1ccccc1O)=C1C(=O)OC(CO)C1=O (stereo not shown) | G2-synchronized tsFT210 cells | flow cytometry | – | 50 µM, 4 h, 32 °C, release from G2 arrest | – | G2/M phase cells | 60.7% |
| CC(=O)N[C@@H](CSC(=O)[C@]1([C@@H](O)C(C)C)NC(=O)[C@H](C)[C@@H]1O)C(=O)O | LDR | silenced CMV-GFP reporter derepression, qHTS | – | – | – | efficacy | 52% |
| Cc1cc(Nc2ncc(Cl)c(Nc3ccccc3S(=O)(=O)C(C)C)n2)c(OC(C)C)cc1C1CCNCC1 | CLB-GE | phosphoproteomics LC-MS/MS, item: C10orf137 phosphorylation | – | 200 nM, 60 min | baseline: untreated | log2 fold change | -1.78 |
| Cn1cc(Nc2nccc(-c3ccc4c(c3)CN(C3COC3)CC[C@H]4NC(=O)c3cn(C(C)(C)C)nn3)n2)cn1 | human B cells | – | – | 100 nM, 64 h, stimulation-upregulated genes, together with: anti-IgM | – | number of downregulated genes | 53 |
| CCCCc1nc(Cl)c(CO)n1Cc1ccc(-c2ccccc2-c2nn[nH]n2)cc1 | human PBMC | RNA-seq, item: RHOBTB1 mRNA | – | 10 µg/mL, 24 h | baseline: untreated control | log2 fold change | -2.24 |
| CCn1cc(-c2cc(Cn3ccnc3)cc3c2CCN([C@H](c2cc(OC)ccn2)C2CC2)C3=O)c(C(F)(F)F)n1 | SW480 | cell growth, inhibitor | – | 120 h | – | EC50 | > 30 µM |
| Cc1ccc(CNC(=O)Cn2cc(CSc3nc4ccccc4[nH]3)nn2)cc1 | Caco-2 | MTT | – | 125 ppm | – | cytotoxicity | 86.9% |
| C[C@H]1[C@H](OC(=O)CCC(=O)O)O[C@@H]2O[C@@]3(C)CC[C@H]4[C@H](C)CC[C@@H]1[C@@]24OO3 | human primary cardiac fibroblasts | – | – | 5 µM, together with: TGF-β1 5 ng/mL | – | collagen gel contraction | decreased |
| N[C@@H](CCSC[C@H](N)C(=O)O)C(=O)O | – | binding, MIDAS equilibrium dialysis LC-MS | A2AR-BRIL thermostabilized | concentration not given | baseline: no-protein control | log2 fold change | 0.023 |
| O=c1cc(-c2ccc(O)c(O)c2)oc2cc(O)cc(O)c12 | Caco-2 | Western blot, item: MRP2 | – | concentration not given | baseline: untreated | protein level | decreased |
| COc1ccc2c(c1)c1ccc3c(c1n2C)C(=O)C=CC3=O | LDR | silenced CMV-GFP reporter derepression, qHTS | – | – | – | efficacy | 41% |
| Cn1cc(-c2ccc(-c3cncc(Cl)c3N3CCC4(CCNC4=O)CC3)cc2)cn1 | COLO 205 | gene expression, microarray, item: ITGB1BP2 mRNA | – | concentration not given, 2 h | baseline: untreated cells | log2 fold change | -2.42 |
| O[C@H]1[C@H]2c3cc4c(cc3CN3CCC(=C[C@@H]1O)[C@H]23)OCO4 | LDR | silenced CMV-GFP reporter derepression, qHTS | – | – | – | efficacy | 28% |
| COc1ccc(NC(=S)N/N=C/c2cccc3cc4ccccc4nc23)cc1 | HeLa | annexin V/PI flow cytometry | – | concentration not given, 48 h, together with: N-acetylcysteine | – | late apoptotic cells | 6.12 ± 0.72% |

For quick reference, copied from above:
| SMILES | tested on | assay | test system | setting | scale | endpoint | value |
| --- | --- | --- | --- | --- | --- | --- | --- |
| CCCCN1C[C@H](O)[C@@H](O)[C@@H](O)[C@H]1CO | sample B patient fibroblasts | GlcCer level lowering, LC-MS/MS, item: GlcCer d18:1/24:1 | – | 216 h | – | IC50 | 28.8 µM |
| N[C@@H](CCSC[C@H](N)C(=O)O)C(=O)O | – | binding, MIDAS equilibrium dialysis LC-MS | A2AR-BRIL thermostabilized | concentration not given | baseline: no-protein control | log2 fold change | 0.023 |
| Cc1ccc(O)c(/C=C2\SC(N3CCCCC3)=NC2=O)c1 | NG108-cl | clomeleon fluorescence, item: intracellular chloride reduction | – | 5 h | – | EC50 | inactive |
